Measured values collected from several papers.
Parts stem from different laboratories: compare values within a part only. Changes are numbered by the printed parent chain.

Series 1
Target: Histone acetyltransferase KAT6A, both winged helices, GST fusion (KAT6A, Homo sapiens, UniProt Q92794, residues 1-181)
Technique: protein binding microarray
Form: double-stranded DNA, one strand shown
Medium: in vitro
Tested at: not given
Notes: 8-mer, flanks averaged, mean of 2 arrays, mostly near background
Reference: not given
Reading: higher = stronger binding
Target sequence (chain): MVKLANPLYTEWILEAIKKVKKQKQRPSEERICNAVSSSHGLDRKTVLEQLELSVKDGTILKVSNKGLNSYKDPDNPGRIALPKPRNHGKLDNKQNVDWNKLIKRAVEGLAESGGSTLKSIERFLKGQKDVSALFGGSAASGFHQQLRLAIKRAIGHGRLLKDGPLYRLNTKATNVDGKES
Strand	E-score
CAATAGGC	-0.0915
ACAGTCTC	-0.12
AATTGACT	-0.179
GAGTAGAC	0.00248
CTCCCAGC	-0.129
CATTTTGC	-0.0305
CAACTTGA	-0.0787
AGTCATTC	-0.148
CGATAAGA	0.0358
CAACGTCA	-0.0301
CTTACCCA	-0.151
CTGTGTAA	-0.0971
ACGTAGTG	0.0432
CAGGGAAG	-0.189
AATATTAT	-0.0802
ATCAAGCG	0.169

Series 2
Target: RNA binding protein fox-1 homolog 2, RRM domain, GST-SBP tag (RBFOX2, Homo sapiens, UniProt O43251-10, residues 100-194)
Technique: RNA Bind-n-Seq
Form: RNA
Medium: in vitro
Tested at: 365 nM
Notes: natural RNA segment, single round, ends assumed
Reference: no-protein control
Reading: higher = stronger binding
Construct (chain): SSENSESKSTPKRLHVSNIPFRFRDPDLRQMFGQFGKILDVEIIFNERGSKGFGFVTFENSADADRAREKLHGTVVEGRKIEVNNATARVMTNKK
Strand	RBNS enrichment (R)
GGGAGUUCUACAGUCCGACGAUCAAGAAUUCUUGCCAUGGUCCUAAAAACUGGAUUUUAAGAUUAUUUUACUUCCCCUUCAUGCCUGUCUCCAGUAUCCACCCCAGCUUCUUUCUGAAUGUAAGGGAUUAAGAUGGAAUUCUCGGGUGCCAA	2.26
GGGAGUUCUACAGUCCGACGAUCUAGAUACAGGUACUUUGAAACCACUAACCCUUCUUUACACGGGGCACAUAGGCCAGUCCGAGUUCUUUCUUAACAAGAUGGCUGUUCUGGCCUGGCCAGCAGUCUGCAUGUGGAAUUCUCGGGUGCCAA	0.708
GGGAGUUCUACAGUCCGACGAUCGCCAGGCCCGUGCGGUCAGUGGGACCCGGACGUGGGCAGGCGAGCUCGGGACCCUCCCAGGCAGUUCCCACAGCUCUUGCCUCGGCUCACCAGGGUCACUUCCACUGUCAUGGAAUUCUCGGGUGCCAA	0.398
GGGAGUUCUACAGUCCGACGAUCAUAGGGACAUACCAGAUGUUGCAGUGAUUUUAGCUAUCAACAAACUGUUAACCAUGUACAAUAUUUAAAAUAGGCUUAUUUUGAUGUAUCGCCUAUUAUACAAACACACAUGGAAUUCUCGGGUGCCAA	0.408
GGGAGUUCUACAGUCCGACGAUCAAAGCUUUUCUUACAGAAAACCAUCACAGCGACAUUACCUCAUGUUUGUAUGUUUAGUUUUGUGUCUCGUAACAGUGUUCACAUUUGUGAUUCUGAUGUCAGUAUUGUGUUGGAAUUCUCGGGUGCCAA	0.438
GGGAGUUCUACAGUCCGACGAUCUGAAACUUGGAGGCUUACAGGUAUAGACAGCUUUCAGCUACAGCACAUUCUAAUUUUUUAUUUUGUUUAGUUCUUUUGUAUUCACUUCUGGUCUCUUUAAGACUGUUUUAUGGAAUUCUCGGGUGCCAA	0.403
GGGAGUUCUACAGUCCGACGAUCCCUCUCCUUCCACCCCUCAUUUCCUUUUUGCACACAUUACAGGUGGUGUGUUCUGUGAUAAUGAAAAGCAUCAGAAAAGCUUUUGUACUUUGUGGUUUCCUCUAUUUUGAUGGAAUUCUCGGGUGCCAA	1.17
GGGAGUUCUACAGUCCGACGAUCCGCCAUCUUCCUGGACAGAGUGAGCUGUCAGUCACUCCCCAGGUUUUUUUUGUUUUUGGGGUUUUUUUUUUUUUGUACCAAGUAGCUAGAAAGUGGGACCUAGGGCCCUGUGGAAUUCUCGGGUGCCAA	1.55
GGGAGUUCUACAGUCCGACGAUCGGCUUGACCCUGAGCCAUAGGGAAACUGAACUGUGGGGGCCUGUGGUUGACAGGCCUGUGAAAUCCCCUGUCCCACCCUGGAAUUUCAAAUAAAGAGCUUUUUACCCCUUUGGAAUUCUCGGGUGCCAA	0.3
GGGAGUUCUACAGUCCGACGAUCCAAGUUCUUGUAUAAUGAAGUCAAUGCCAUCAGGCCAAGGAAAUAAAAUAAUUGCUUACCUUAAAAAUCCACUGAGUUCAGCAAUGUUGCCUUUAUUUUGUAUGUAUUAGUGGAAUUCUCGGGUGCCAA	0.634
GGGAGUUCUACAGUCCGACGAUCCACACAGUUCGGAAAGACUACAGAUCUUAACGAUCAGCCUUCGCUCCUAAUGUAUUUGUUGGUUUCAUUUCAUUUUCAUUUUGCACUUGCACUAAAUUGAACAUGACCCUUGGAAUUCUCGGGUGCCAA	0.633
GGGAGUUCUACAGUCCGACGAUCAAAAUUGGAACUCUACUCAACCCAUUGUUGUCAAGGAAGAAGAAAUCUUUCUCCCUCAACUGAAGGGGUGCACCCACCUGUUUUCUGAAACACACGAGCAAACCCAGAGGUGGAAUUCUCGGGUGCCAA	0.371

Series 3
Target: Fragile X messenger ribonucleoprotein 1, C-terminal low-complexity region (Fmr1, Mus musculus, UniProt P35922)
Technique: RNA Bind-n-Seq
Form: RNA
Medium: in vitro
Tested at: 200 nM
Notes: whole 134-nt RNA, ends assumed
Together with: 150 mM LiCl
Reference: input library
Reading: higher = stronger binding
Library: 7-deaza-guanosine replaces G
Strand	log2 enrichment
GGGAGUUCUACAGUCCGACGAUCGAAAUUGAACCAGCAGCGAUGAAAGCAGCAGCUGCUGCCCCUGCCUCAGAGGAUGAGGACGAUGAGGAUGACGAAGAUGAUGAGGAUGACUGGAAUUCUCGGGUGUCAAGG	-1.41
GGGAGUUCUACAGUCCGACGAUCGUCCUGUGCUACACAUCGUAUGUACCGAAUCGGGAAAAAAGGAAAAAAGGGAAAAAAGGAAAGUAUUAUGUUACGCCGUUCGGAUCUGCAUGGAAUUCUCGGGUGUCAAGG	-0.0833
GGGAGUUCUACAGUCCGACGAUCACCAUGCAGGUGGGCAUCUUUGGGAAGUGGGGCAAGGGGGGGAUAGGGAGGGGGGUAACACUUUGGGAACAGGUGGUCCCAGGUCGCUUCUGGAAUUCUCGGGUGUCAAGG	1.48
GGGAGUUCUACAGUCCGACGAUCCACAGACAACACAAACCCACACAGACACAGAGGGAAGGGGUUGGGAUGGGGACAGGGUGCACAGCAGGGCGGGGUAGGACCCCAGCCCCUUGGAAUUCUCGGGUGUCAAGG	-0.0357
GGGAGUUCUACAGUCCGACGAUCGCAGGAAGUAAAAACAAAUGGAAAUGCUUCGGAUAGUGGCAGGGGUGGGGGGUGCUAAGGAAAGGGUGGGAUGGGAGUGGGUAAAGAGUUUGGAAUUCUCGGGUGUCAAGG	1.4
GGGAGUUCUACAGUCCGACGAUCAAGUCCUGUGCUACACAUCGUAUGUACCGAAUCGGGGUGGGGUGGGGUUUUUGGGGAAAGUAUUAUGUUACGCCGUUCGGAUCUGCACUUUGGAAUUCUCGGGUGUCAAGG	-1.47
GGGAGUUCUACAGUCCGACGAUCCACAGACAACACGCACCCACACAGACACAGAGGGAAGGGGUUGGGAUGGGGACAGGGUGCACAGCAGGGCGGGGUAGGACCCCAGCCCCGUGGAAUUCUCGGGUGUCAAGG	-0.129
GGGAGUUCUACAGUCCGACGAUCUCCUGUGCUACACAUCGUAUGUACCGAAUCGGGGUUUGGGGUUUUUGGGGAAAAAGGGGAAAGUAUUAUGUUACGCCGUUCGGAUCUGCAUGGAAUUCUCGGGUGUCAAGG	-0.748
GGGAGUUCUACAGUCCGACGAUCUGGGAGGUGGAUUUUGUUUAUUUUUUUAGCUCAUUUCCAGGGGUGGGAAUUUUUUUUUGAUAUGUGUCAUGAAUAAAGUUGUUUUUGAAAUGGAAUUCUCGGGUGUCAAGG	-0.691
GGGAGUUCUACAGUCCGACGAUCUCAAGUCCUGUGCUACACAUCGUAUGUACCGAAUCGGCCCGGCCCGGGGCCCGGAAAGUAUUAUGUUACGCCGUUCGGAUCUGCACUUCCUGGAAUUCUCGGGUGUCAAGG	-1.06
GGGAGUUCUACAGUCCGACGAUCUAACUUUAGAGGAGGAUCUGAUGGAUAUGGCAGUGGACGUGGAUUUGGGGAUGGCUGUAAUGGGUAUGGAGGAGGACCUGGAGGUGGCAAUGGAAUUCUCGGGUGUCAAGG	1.16

Series 4
Target: CCNE2, cyclin fold, Cln2 fusion (human)
Technique: yeast growth competition, sequencing
Medium: yeast
Notes: weak parent motif
Reference: not given
Reading: higher = stronger binding
Starting sequence: RRM2 docking peptide (human); SKTARRIFQEPTE; partner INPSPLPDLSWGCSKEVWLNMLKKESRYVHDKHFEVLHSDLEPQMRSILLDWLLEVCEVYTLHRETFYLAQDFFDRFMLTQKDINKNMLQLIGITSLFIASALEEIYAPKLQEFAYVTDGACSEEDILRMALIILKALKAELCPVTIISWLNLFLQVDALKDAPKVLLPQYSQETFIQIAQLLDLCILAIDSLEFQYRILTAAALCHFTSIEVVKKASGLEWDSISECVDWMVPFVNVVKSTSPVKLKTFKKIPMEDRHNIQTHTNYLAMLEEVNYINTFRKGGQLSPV
Change	normalised enrichment score
T3A	0.333
E10A	0.62
R5A	-0.041
K2A	0.404
P11A	0.164
I7A	0.216

A few entries again (series 3):
Strand	log2 enrichment
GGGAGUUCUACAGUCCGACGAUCGCAGGAAGUAAAAACAAAUGGAAAUGCUUCGGAUAGUGGCAGGGGUGGGGGGUGCUAAGGAAAGGGUGGGAUGGGAGUGGGUAAAGAGUUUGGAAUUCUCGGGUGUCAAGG	1.4
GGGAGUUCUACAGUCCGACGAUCAAGUCCUGUGCUACACAUCGUAUGUACCGAAUCGGGGUGGGGUGGGGUUUUUGGGGAAAGUAUUAUGUUACGCCGUUCGGAUCUGCACUUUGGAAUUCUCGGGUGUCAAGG	-1.47
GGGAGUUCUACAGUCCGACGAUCCACAGACAACACGCACCCACACAGACACAGAGGGAAGGGGUUGGGAUGGGGACAGGGUGCACAGCAGGGCGGGGUAGGACCCCAGCCCCGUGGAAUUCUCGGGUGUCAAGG	-0.129
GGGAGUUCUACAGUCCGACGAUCUCCUGUGCUACACAUCGUAUGUACCGAAUCGGGGUUUGGGGUUUUUGGGGAAAAAGGGGAAAGUAUUAUGUUACGCCGUUCGGAUCUGCAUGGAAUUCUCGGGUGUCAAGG	-0.748
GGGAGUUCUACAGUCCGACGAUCUGGGAGGUGGAUUUUGUUUAUUUUUUUAGCUCAUUUCCAGGGGUGGGAAUUUUUUUUUGAUAUGUGUCAUGAAUAAAGUUGUUUUUGAAAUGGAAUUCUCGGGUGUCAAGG	-0.691
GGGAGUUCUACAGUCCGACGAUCUCAAGUCCUGUGCUACACAUCGUAUGUACCGAAUCGGCCCGGCCCGGGGCCCGGAAAGUAUUAUGUUACGCCGUUCGGAUCUGCACUUCCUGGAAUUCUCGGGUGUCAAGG	-1.06
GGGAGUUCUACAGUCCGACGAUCUAACUUUAGAGGAGGAUCUGAUGGAUAUGGCAGUGGACGUGGAUUUGGGGAUGGCUGUAAUGGGUAUGGAGGAGGACCUGGAGGUGGCAAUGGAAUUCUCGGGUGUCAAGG	1.16
